Published values gathered from unrelated publications.
Compare with care: the assays were run in different laboratories. ± marks the error that the study gave.

C[C@@](O)(C(F)F)[C@H](NC(=O)c1ccc(C#CC#CC2CC2)cc1)C(=O)NO  AUC(0-inf) (CD-1 mouse; oral, 40 mg/kg, not fasted): 5800 ± 2500 ng·h/mL
O=C(O)CCC(NP(=O)(O)OCCC[C@@H](NC(=O)CCC(NC(=O)CCCCCNC(=O)CCCCCNC(=O)c1ccc([18F])cc1)C(=O)O)C(=O)O)C(=O)O (some centres unmarked)  tracer uptake (CWR22Rv1 tumour model; host not given, blood; intravenous, 2 h, tumour-bearing): 0.03 %ID/g
COc1ccc(CNc2nc(N3CCC[C@H]3CO)ncc2C(=O)NNC(=O)c2cnc(N3CCC[C@H]3CO)nc2NCc2ccc(OC)c(Cl)c2)cc1Cl  revertant count (Salmonella typhimurium; TA102; 500 µg/plate): 235 ± 13
O=C(O)CCC(NP(=O)(O)OCCC[C@@H](NC(=O)CCC(NC(=O)CCCCCNC(=O)c1ccc([18F])cc1)C(=O)O)C(=O)O)C(=O)O (some centres unmarked)  tracer uptake (CWR22Rv1 tumour model; host not given, bone; intravenous, 2 h, tumour-bearing): 0.23 %ID/g
COc1cc(C(=O)NCCOCCOCCOCCNC(=O)c2ccc([18F])nc2)ccc1NC(=O)C1NC(CC(C)(C)C)C(C#N)(c2ccc(Cl)cc2F)C1c1cccc(Cl)c1F (centres unmarked)  tracer uptake (HepG2 tumour model; host not given, tumour; 2 h, tumour-bearing): 2.07 %ID/g
C[C@]12CC[C@H](OCC[18F])C[C@H]1CC[C@@H]1[C@@H]2CC[C@]2(C)[C@@H](c3ccc(=O)oc3)CC[C@]12O  tracer uptake (SMMC-7721 tumour model; nude, tumour; intravenous, 7.4 MBq, 5 min, tumour-bearing): 2.96 %ID/g
CCCCCC(=O)NCC(=O)N[C@@H](CC(C)C)C(=O)N[C@@H](CC(C)C)C(=O)N[C@@H](CCCCN)C(=O)N[C@@H](CCCNC(=N)N)C(=O)N[C@H](C(=O)N[C@@H](CCCCN)C(=O)N[C@H](C(=O)N[C@@H](CC(C)C)C(=O)N[C@@H](CC(C)C)C(=O)NCCCC[C@H](NC(=O)[C@H](CC(C)C)NC(=O)[C@H](CC(C)C)NC(=O)[C@@H](NC(=O)[C@H](CCCCN)NC(=O)[C@@H](NC(=O)[C@H](CCCNC(=N)N)NC(=O)[C@H](CCCCN)NC(=O)[C@H](CC(C)C)NC(=O)[C@H](CC(C)C)NC(=O)CNC(=O)CCCCC)[C@@H](C)CC)[C@@H](C)O)C(=O)NCCCC[C@H](NC(=O)[C@H](CCCCNC(=O)[C@H](CC(C)C)NC(=O)[C@H](CC(C)C)NC(=O)[C@@H](NC(=O)[C@H](CCCCN)NC(=O)[C@@H](NC(=O)[C@H](CCCNC(=N)N)NC(=O)[C@H](CCCCN)NC(=O)[C@H](CC(C)C)NC(=O)[C@H](CC(C)C)NC(=O)CNC(=O)CCCCC)[C@@H](C)CC)[C@@H](C)O)NC(=O)[C@H](CC(C)C)NC(=O)[C@H](CC(C)C)NC(=O)[C@@H](NC(=O)[C@H](CCCCN)NC(=O)[C@@H](NC(=O)[C@H](CCCNC(=N)N)NC(=O)[C@H](CCCCN)NC(=O)[C@H](CC(C)C)NC(=O)[C@H](CC(C)C)NC(=O)CNC(=O)CCCCC)[C@@H](C)CC)[C@@H](C)O)C(N)=O)[C@@H](C)O)[C@@H](C)CC  minimum haemolytic concentration (human erythrocytes; 1 h, 37 °C, 10% haemolysis): 10.9 µM
CN[C@](C)(C[18F])C(=O)O  tracer uptake (DU-145 tumour model; host not given, muscle; 1 h, tumour-bearing): 1.2 %ID/g
CN(C)CCNC(=O)/C=C/C(Cc1ccccc1)Nc1ccnc2cc(Cl)ccc12 (centres unmarked)  selectivity ratio (Plasmodium falciparum; Vero, 3D7 chloroquine-sensitive; relative to: CC50 Vero over IC50 parasite): 1140
O=C1CC(=O)N(c2ccccc2)c2cc(Cl)ccc2N1  blood concentration (129X1/SvJ mice, whole blood; oral, 1 mg/kg, 2 h): 1000 nM
CN(C)CC1CCCCC1(O)c1cccc(O)c1 (centres unmarked)  Papp B to A (P-glycoprotein; Caco-2 TC7; 1 µM, 3 h, pH 6.8 apical, 7.4 basolateral, together with: cyclosporin A 10 µM): 21.2 ± 0.6 ×10⁻⁶ cm/s
CCCCCCCC(=O)NCC(=O)N[C@@H](CC(C)C)C(=O)N[C@@H](CC(C)C)C(=O)N[C@@H](CCCCN)C(=O)N[C@@H](CCCNC(=N)N)C(=O)N[C@H](C(=O)N[C@@H](CCCCN)C(=O)N[C@H](C(=O)N[C@@H](CC(C)C)C(=O)N[C@@H](CC(C)C)C(=O)NCCCC[C@H](NC(=O)[C@H](CC(C)C)NC(=O)[C@H](CC(C)C)NC(=O)[C@@H](NC(=O)[C@H](CCCCN)NC(=O)[C@@H](NC(=O)[C@H](CCCNC(=N)N)NC(=O)[C@H](CCCCN)NC(=O)[C@H](CC(C)C)NC(=O)[C@H](CC(C)C)NC(=O)CNC(=O)CCCCCCC)[C@@H](C)CC)[C@@H](C)O)C(N)=O)[C@@H](C)O)[C@@H](C)CC  minimum haemolytic concentration (human erythrocytes; 1 h, 37 °C, 10% haemolysis): 5.67 µM
CCC(=O)N(C)c1ccc(Cl)c(Cl)c1  revertant colonies (Salmonella typhimurium; Ames test; TA1535; 5.00 mg/plate, with rat liver S9): 0 revertants/plate
CCCCCCCCCCCC(=O)NCC(=O)N[C@@H](CC(C)C)C(=O)N[C@@H](CC(C)C)C(=O)N[C@@H](CCCCN)C(=O)N[C@@H](CCCNC(=N)N)C(=O)N[C@H](C(=O)N[C@@H](CCCCN)C(=O)N[C@H](C(=O)N[C@@H](CC(C)C)C(=O)N[C@@H](CC(C)C)C(N)=O)[C@@H](C)O)[C@@H](C)CC  minimum haemolytic concentration (human erythrocytes; 1 h, 37 °C, 10% haemolysis): 11.4 µM
Cc1nc([C@H](NC(=O)c2ccc(-c3ccc(Cl)cc3)[nH]2)[C@@H]2CCCCN2)sc1CO  CC50 (U87/CD4/CCR5; cell growth or viability, XTT): ~30 µM
CC[C@H](C)[C@H](NC(=O)[C@H](CCCNC(=N)N)NC(=O)[C@H](CCCCN)NC(=O)[C@H](CC(C)C)NC(=O)[C@H](CC(C)C)NC(=O)CN)C(=O)N[C@@H](CCCCN)C(=O)N[C@H](C(=O)N[C@@H](CC(C)C)C(=O)N[C@@H](CC(C)C)C(=O)NCCCC[C@H](NC(=O)[C@H](CC(C)C)NC(=O)[C@H](CC(C)C)NC(=O)[C@@H](NC(=O)[C@H](CCCCN)NC(=O)[C@@H](NC(=O)[C@H](CCCNC(=N)N)NC(=O)[C@H](CCCCN)NC(=O)[C@H](CC(C)C)NC(=O)[C@H](CC(C)C)NC(=O)CN)[C@@H](C)CC)[C@@H](C)O)C(N)=O)[C@@H](C)O  minimum haemolytic concentration (human erythrocytes; 1 h, 37 °C, 10% haemolysis): 51.2 µM
COc1ccc(CNc2nc(N3CCC[C@H]3CO)ncc2C(=O)NN)cc1Cl  revertant count (Salmonella typhimurium; TA98; 1000 µg/plate, 48 h, together with: rat liver S9): 36 ± 4

Repeated from above:
COc1ccc(CNc2nc(N3CCC[C@H]3CO)ncc2C(=O)NNC(=O)c2cnc(N3CCC[C@H]3CO)nc2NCc2ccc(OC)c(Cl)c2)cc1Cl  revertant count (Salmonella typhimurium; TA102; 500 µg/plate): 235 ± 13
O=C(O)CCC(NP(=O)(O)OCCC[C@@H](NC(=O)CCC(NC(=O)CCCCCNC(=O)c1ccc([18F])cc1)C(=O)O)C(=O)O)C(=O)O (some centres unmarked)  tracer uptake (CWR22Rv1 tumour model; host not given, bone; intravenous, 2 h, tumour-bearing): 0.23 %ID/g
